Experimental data pooled from the literature.
A part holds a random share of what one study measured. Changes are numbered by the printed parent chain.

Study 1
Target: Ras GTPase-activating protein-binding protein 1, full length (G3BP1, Homo sapiens, UniProt Q13283)
Sequence of UniProt Q13283 (whole entry, looked up): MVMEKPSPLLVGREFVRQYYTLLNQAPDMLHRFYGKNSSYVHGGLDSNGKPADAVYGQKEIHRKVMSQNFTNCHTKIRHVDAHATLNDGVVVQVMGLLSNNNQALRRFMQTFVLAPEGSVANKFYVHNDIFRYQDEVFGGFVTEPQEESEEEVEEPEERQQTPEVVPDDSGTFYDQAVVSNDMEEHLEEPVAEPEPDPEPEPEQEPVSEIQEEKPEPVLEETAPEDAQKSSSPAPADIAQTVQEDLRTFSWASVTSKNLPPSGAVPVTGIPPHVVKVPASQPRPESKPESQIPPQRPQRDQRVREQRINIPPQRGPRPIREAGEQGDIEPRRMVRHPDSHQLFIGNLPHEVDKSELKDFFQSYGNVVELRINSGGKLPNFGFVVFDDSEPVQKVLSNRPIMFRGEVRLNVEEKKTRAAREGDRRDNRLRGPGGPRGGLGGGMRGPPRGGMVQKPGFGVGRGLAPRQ
Technique: RNA Bind-n-Seq
Molecule type: RNA
Sample: in vitro
Concentration: 200 nM
Notes: whole 134-nt RNA, ends assumed
Added: 150 mM KCl
Baseline: input library
Direction: higher = stronger binding
Shared flanks, not repeated: GGGAGUUCUACAGUCCGACGAUC … UGGAAUUCUCGGGUGUCAAGG
Sequence | log2 enrichment
UCCUGUGCUACACAUCGUAUGUACCGAAUCAAACCCAAACCCCCCCAAAUUUUUUUAAAAAAGUAUUAUGUUACGCCGUUCGGAUCUGCA | -0.0789
UUGGAAGAGACCAGUGAAAUUCGAUCUGACUUGGAGCAGUUAGACCACGAGGUUAAGGAGGCUCAGACACUGUGCGAUGAACUCUCAGUG | 0.625
GCAGGAAGUAAAAACAAAUGGAAAUGCUUCGAAUAGUGGCAGGGGUGGGGGUUGCUAAGGAAAGGGUGGGAUGGGAGUGGGUAAAGAGUU | 1.1
AGUCCUGUGCUACACAUCGUAUGUACCGAAUCGGGGAGGGGUUUUUGGGGUUUGGGGAAAGUAUUAUGUUACGCCGUUCGGAUCUGCACU | 0.426
ACCAUGCAGGUGGGCAUCUUUGGGAAGUGGGGCAAGGGGGGGAUAGGGAGGGGGGUAACAGUUUGGGAACAGGUGGUCCCAGGUCGUUUC | 1.3
CUCAAGUCCUGUGCUACACAUCGUAUGUACCGAAUCGGGGUGGGGUGGGGUGGGAAAGUAUUAUGUUACGCCGUUCGGAUCUGCACUUCC | 0.86
UAACUUUAGAGGAGGAUCUGAUGGACAUGGCAGUGGACGUGGAUUUGGGGAUGGCUAUAAUGGGUAUGGAGGAGGACCUGGAGGUGGCAA | 0.425
GCAGGAAGUAAAAACAAAUGGAAAUGCUUCGGAUAGUGGCAGGGGUGGGUGUUGCUAAGGAAAGGGUGGGAUGGGAGUGGGUAAAGAGUU | 0.838
CAAGUCCUGUGCUACACAUCGUAUGUACCGAAUCGGGAAAGGGAGGGAAAAAGGGAAAGUAUUAUGUUACGCCGUUCGGAUCUGCACUUC | 0.795

Study 2
Target: Phosphate system positive regulatory protein PHO4, full length, GST-tagged (PHO4, Saccharomyces cerevisiae, UniProt P07270, residues 1-312)
Technique: competition protein-binding microarray
Molecule type: double-stranded DNA, one strand shown
Sample: in vitro
Concentration: 2 µM
Notes: whole 60-bp probe, lowest competitor level
Added: Cbf1 competitor, 0.05 µM
Direction: higher = stronger binding
Shared flanks, not repeated: … GTCTTGATTCGCTTGACGCTGCTG
Residues (chain): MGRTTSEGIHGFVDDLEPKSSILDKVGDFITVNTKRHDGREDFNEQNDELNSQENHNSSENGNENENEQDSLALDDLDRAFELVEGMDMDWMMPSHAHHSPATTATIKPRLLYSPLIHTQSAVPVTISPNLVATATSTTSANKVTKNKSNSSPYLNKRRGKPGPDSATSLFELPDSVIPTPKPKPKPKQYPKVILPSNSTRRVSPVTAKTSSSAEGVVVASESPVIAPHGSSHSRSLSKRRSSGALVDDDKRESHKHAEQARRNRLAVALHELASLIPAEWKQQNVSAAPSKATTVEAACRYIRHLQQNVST
Sequence | fluorescence intensity [a.u.]
TTTAATTTAATTCGGCATGTGGCCGGCAGGGTAATG | 8600
GTCTTGTCTCATTGTTCCGTGGGTGTCCCCACTTCA | 4840
CGTTTCATTCAAGAGGGCGTGCATCCGCGGATCATC | 7840
CGTCCTAGTGATTGTAGCGTGGGTGCCATGAGGAAG | 8980
CTAGACCAGTAGCAACACATGGACCGATAACACCAG | 8620
CGTCCTAGTGATTGTCACTACACTTCCATGAGGAAG | 3980
TCTCGTAAAATCCTGCGCATGTTAAATAGCCGCCGA | 6010
AAAGCGGTAATTTGCGGTGTGGGTGCAGATATCTAT | 4900
TTTCCAACCTTCTGGCACGATAGTCTATGTCAAAAT | 6600
AGTCTGTGCTAGTCCCACGTGTGAATGCCAAGGTTG | 17900
AGTACAGTCTTGGACAATGTGACAGGGACCCTTGAA | 4610
CGATATAGAACAAAGCACGTGTAATTATTCAACTTT | 18400
AGGCCCTAGGGGCCGTGCGTGGAGTAAAAAGGTTTG | 8180
TGCGCAACAACTTGAAAAGTGGGTGTATGTCTAGAA | 4100
TAGCGTCCAAGGACGCCCGTGGCCGAGGGAGCACCA | 7420
TCGGTCCTTAAAAGTCAGCTGACTGGGGCCGTCGCT | 1780
AAATCATGAGAAGCGCACATGTCGAGATATCAATAG | 13300
CATACCCAACCTTGGTGCGTGGGTGAAGATATTTGT | 10300
TTCAACTCACATTTGCACGATGCAAGCCAATGGAAA | 10300

Study 3
Target: ABI1, truncated, D143A, DHFR fusion (Arabidopsis thaliana)
Technique: DHFR PCA, deep sequencing
Sample: yeast
Notes: methotrexate growth selection, single substitutions
Added: (+)-ABA 58 µM
Baseline: wild-type fitted maximum
Direction: higher = stronger binding
Starting sequence: PYL1, truncated, DHFR fusion (Arabidopsis thaliana); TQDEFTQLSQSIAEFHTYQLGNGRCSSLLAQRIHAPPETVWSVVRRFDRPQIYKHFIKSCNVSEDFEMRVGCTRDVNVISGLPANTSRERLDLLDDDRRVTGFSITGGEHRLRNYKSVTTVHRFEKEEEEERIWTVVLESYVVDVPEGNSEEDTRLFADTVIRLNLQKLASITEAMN; partner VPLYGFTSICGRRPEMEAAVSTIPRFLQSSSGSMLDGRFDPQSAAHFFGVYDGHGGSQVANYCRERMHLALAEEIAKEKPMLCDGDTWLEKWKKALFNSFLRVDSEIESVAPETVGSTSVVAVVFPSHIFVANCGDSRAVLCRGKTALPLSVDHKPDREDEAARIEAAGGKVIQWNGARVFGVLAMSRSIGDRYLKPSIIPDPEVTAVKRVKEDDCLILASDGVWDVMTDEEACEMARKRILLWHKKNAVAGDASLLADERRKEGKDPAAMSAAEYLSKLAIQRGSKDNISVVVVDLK
Substitution | relative binding score
Y141R | -8.05%
I52G | 67.4%
H110S | 34.1%
S117F | -1.58%
S9N | 69%
K116S | 90.3%
N149T | 59.6%
V44K | 1.54%
L112I | 8.7%
N22W | 82.1%
L93G | 11%
R74T | 3.83%
F103N | -6.39%
G81R | 5.5%
I172T | 72.8%

Study 4
Target: CCNA2, cyclin fold, Cln2 fusion (human)
Technique: yeast growth competition, sequencing
Sample: yeast
Notes: strong parent motif
Baseline: not given
Direction: higher = stronger binding
Starting sequence: PKMYT1 docking peptide (human); SFEPRNLLSLFED
Substitution | normalised enrichment score
L10P | -1.49
E12D | 2.55
S9T | 2.67
L8I | 1.88
R5Y | -0.476
E12V | 2.14
L8N | 1.5
P4T | -0.748
R5F | -0.244
F11K | -0.644
E12I | 2.02
R5M | 0.886
R5H | -1.15

Some of these lines once more (study 4):
Substitution | normalised enrichment score
R5Y | -0.476
L8I | 1.88
R5M | 0.886
E12D | 2.55
E12V | 2.14
